Measured values from different studies.
Each line is one published result; not all experiments were run side by side. Values joined by “and” are separate records of one study, mostly repeats; a detail may differ.
TDP1: Tyrosyl-DNA phosphodiesterase 1 (TDP1, Homo sapiens, UniProt Q9NUW8)
UniProt Q9NUW8, sequence (whole entry, looked up): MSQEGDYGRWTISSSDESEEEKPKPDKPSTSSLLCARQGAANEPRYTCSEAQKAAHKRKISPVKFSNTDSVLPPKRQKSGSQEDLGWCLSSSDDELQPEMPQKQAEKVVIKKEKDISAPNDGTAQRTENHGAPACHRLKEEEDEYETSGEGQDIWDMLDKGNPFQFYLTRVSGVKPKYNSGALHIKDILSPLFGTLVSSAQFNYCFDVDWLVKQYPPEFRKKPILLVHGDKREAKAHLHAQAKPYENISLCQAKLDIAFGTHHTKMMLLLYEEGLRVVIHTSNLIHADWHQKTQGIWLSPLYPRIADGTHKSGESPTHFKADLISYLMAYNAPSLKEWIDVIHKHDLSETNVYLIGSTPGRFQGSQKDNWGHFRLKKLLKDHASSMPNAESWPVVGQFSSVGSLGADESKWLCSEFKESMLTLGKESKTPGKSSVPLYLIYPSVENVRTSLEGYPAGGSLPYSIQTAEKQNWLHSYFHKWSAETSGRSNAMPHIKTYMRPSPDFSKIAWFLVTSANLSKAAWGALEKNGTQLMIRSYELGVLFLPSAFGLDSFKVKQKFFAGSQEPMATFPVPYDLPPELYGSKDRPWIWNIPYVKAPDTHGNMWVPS

Structure (SMILES) | target | test | system | conditions | scale | endpoint | result
Nc1ncc(-c2cc(-c3cnn(CC(F)(F)F)c3)ncc2F)nc1C(=O)NC1CNCC(F)C1 (stereo not shown) | CLK4 | KINOMEscan | – | 1 µM | reference: DMSO control | remaining binding | 48%
C=CC(=O)Nc1cccc(Cn2ncc3cnc(Nc4cnn(CCOC)c4)nc32)c1 | ZAP70 human | binding, KINOMEscan | – | 100 nM | lower = stronger binding | percent of control | 54%
COc1ccc(Br)c(C=NOCc2ccc(-c3nc4cc(-c5ccccc5)ccn4c3Nc3ccc(C(=O)O)cc3)cc2)c1OC (mixture of isomers) | TDP1 | enzyme activity, inhibitor | – | 100 µM, unpurified compound | – | inhibition | 71.4%
N[C@H]1CC[C@H](Nc2nccc(-c3cccnc3Oc3ccc(NC(=O)NC4CC4)c4ccccc34)n2)CC1 | CSNK2A1/CSNK2A3 (human) | kinobead competition pulldown | HEK293/HCT116 lysate mixture | 10 µM, 1 h, 4 °C | lower = stronger competition | log2 LFQ intensity | 31.8 and 31.7
O=C(O)c1ccc(Nc2c(-c3ccccc3)nc3ccc(CON=Cc4nc5ccccc5s4)cn23)cc1 | TDP1 | enzyme activity, inhibitor | – | 100 µM, unpurified compound | – | inhibition | 10.6%
CCC(=O)N(C)c1ccc(Cl)c(Cl)c1 | SKCa potassium channel | radioligand binding | – | 10 µM | – | inhibition | < 10%
Cc1cn(CC(=O)N(CC(=O)N[C@H]2CCC[C@@H]2N(CC(=O)N[C@H]2COC[C@@H]2N(CC(=O)N[C@H]2COC[C@@H]2N(CC(=O)N[C@H]2COC[C@@H]2N(CC(=O)NCCOCCOCC(N)=O)C(=O)Cn2cnc3c(N)ncnc32)C(=O)Cn2cc(C)c(=O)[nH]c2=O)C(=O)Cn2cnc3c(N)ncnc32)C(=O)Cn2cnc3c(=O)[nH]c(N)nc32)[C@H]2CCC[C@@H]2NC(=O)CN(C(=O)Cn2cnc3c(=O)[nH]c(N)nc32)[C@H]2CCC[C@@H]2NC(=O)CN(C(=O)Cn2cc(C)c(=O)[nH]c2=O)[C@H]2COC[C@@H]2NC(=O)CN(C(=O)Cn2cnc3c(N)ncnc32)[C@H]2COC[C@@H]2NC(=O)CN(C(=O)Cn2cnc3c(=O)[nH]c(N)nc32)[C@H]2COC[C@@H]2N)c(=O)[nH]c1=O | mismatched RNA TC | duplex formation, UV melting | – | – | reference: complementary RNA | ΔTm | -21.7 °C
c1ccc(-c2n[nH]cc2-c2ccnc3ccccc23)nc1 | FUN31 (Candida albicans) | kinase binding, MIB/MS competition | Candida albicans lysate | 10 µM | reference: DMSO | log2 fold change | 0.02
C=CC(=O)N1[C@@H](c2ccc3c(c2)OCO3)c2[nH]c3ccccc3c2C[C@H]1C(=O)N1CCN(C)CC1 | human cyclin E1 N112C-3xFLAG:CDK2 | co-IP with TMT proteomics, item: TUBA1A | – | concentration not given, Q71U36 | reference: wild type DMSO | relative co-enrichment | 127%
Cn1c(=O)[nH]c(=O)c2c1nc(CN1CCN(c3cccc(Cl)c3)CC1)n2Cc1cccc(Cl)c1 | PLC-gamma2 human | – | HEK293-A overexpressing PLC-gamma2 | 50 µM, 2 h | – | IP1 accumulation increase | 10%

For quick reference, copied from above:
Structure (SMILES) | target | test | system | conditions | scale | endpoint | result
C=CC(=O)N1[C@@H](c2ccc3c(c2)OCO3)c2[nH]c3ccccc3c2C[C@H]1C(=O)N1CCN(C)CC1 | human cyclin E1 N112C-3xFLAG:CDK2 | co-IP with TMT proteomics, item: TUBA1A | – | concentration not given, Q71U36 | reference: wild type DMSO | relative co-enrichment | 127%
O=C(O)c1ccc(Nc2c(-c3ccccc3)nc3ccc(CON=Cc4nc5ccccc5s4)cn23)cc1 | TDP1 | enzyme activity, inhibitor | – | 100 µM, unpurified compound | – | inhibition | 10.6%
